{"data": "Published values from different studies", "note": "A part holds a random share of what one study measured.", "chain of UniProt P31749 (whole entry, looked up)": "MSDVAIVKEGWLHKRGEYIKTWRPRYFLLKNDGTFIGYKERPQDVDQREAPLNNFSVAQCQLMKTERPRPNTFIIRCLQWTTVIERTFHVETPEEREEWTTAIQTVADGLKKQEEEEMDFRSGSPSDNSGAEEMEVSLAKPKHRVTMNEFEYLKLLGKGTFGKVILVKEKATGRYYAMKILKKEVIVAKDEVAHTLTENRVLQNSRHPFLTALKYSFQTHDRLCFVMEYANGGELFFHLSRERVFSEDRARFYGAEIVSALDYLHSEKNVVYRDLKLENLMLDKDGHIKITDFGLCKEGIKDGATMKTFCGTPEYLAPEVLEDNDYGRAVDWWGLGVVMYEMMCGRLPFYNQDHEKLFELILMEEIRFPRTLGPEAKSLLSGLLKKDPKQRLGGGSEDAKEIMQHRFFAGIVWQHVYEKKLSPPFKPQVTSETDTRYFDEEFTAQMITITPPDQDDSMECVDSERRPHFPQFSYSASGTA", "chain of UniProt P49840 (whole entry, looked up)": "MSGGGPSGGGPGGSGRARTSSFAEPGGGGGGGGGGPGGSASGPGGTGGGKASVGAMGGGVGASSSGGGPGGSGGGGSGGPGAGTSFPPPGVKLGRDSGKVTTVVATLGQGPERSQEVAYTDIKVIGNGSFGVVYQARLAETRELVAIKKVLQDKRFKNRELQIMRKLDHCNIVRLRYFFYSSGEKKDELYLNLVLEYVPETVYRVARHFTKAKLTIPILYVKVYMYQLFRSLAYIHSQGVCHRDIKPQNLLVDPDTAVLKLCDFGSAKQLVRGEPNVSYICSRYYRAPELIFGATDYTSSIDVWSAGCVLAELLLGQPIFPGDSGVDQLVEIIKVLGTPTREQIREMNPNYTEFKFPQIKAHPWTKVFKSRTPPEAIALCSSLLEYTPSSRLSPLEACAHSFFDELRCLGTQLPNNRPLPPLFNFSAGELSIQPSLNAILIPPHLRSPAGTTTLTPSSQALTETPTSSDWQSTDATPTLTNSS", "chain of UniProt Q13177 (whole entry, looked up)": "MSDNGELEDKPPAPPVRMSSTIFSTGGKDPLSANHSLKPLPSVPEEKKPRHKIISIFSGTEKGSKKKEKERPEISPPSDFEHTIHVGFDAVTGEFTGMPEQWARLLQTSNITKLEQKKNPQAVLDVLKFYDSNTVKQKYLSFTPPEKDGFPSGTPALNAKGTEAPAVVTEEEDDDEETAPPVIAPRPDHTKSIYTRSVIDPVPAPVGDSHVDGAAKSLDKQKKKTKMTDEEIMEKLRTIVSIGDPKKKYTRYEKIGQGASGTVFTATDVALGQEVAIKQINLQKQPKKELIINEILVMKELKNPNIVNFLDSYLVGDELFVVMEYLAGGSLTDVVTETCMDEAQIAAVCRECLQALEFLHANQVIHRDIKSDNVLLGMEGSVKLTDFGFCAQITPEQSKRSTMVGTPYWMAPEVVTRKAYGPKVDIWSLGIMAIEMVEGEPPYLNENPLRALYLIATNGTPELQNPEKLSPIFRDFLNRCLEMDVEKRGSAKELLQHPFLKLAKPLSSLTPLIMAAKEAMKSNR", "chain of UniProt Q9P1W9 (whole entry, looked up)": "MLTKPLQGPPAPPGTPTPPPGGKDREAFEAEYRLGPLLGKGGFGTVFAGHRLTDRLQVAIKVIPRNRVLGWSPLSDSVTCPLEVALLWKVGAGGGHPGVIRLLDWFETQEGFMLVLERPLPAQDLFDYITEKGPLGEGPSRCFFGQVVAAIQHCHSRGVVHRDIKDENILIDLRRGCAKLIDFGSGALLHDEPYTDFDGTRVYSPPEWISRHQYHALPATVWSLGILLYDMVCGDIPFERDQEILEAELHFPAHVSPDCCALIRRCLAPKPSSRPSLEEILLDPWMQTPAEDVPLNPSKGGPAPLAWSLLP", "chain of UniProt P07333 (whole entry, looked up)": "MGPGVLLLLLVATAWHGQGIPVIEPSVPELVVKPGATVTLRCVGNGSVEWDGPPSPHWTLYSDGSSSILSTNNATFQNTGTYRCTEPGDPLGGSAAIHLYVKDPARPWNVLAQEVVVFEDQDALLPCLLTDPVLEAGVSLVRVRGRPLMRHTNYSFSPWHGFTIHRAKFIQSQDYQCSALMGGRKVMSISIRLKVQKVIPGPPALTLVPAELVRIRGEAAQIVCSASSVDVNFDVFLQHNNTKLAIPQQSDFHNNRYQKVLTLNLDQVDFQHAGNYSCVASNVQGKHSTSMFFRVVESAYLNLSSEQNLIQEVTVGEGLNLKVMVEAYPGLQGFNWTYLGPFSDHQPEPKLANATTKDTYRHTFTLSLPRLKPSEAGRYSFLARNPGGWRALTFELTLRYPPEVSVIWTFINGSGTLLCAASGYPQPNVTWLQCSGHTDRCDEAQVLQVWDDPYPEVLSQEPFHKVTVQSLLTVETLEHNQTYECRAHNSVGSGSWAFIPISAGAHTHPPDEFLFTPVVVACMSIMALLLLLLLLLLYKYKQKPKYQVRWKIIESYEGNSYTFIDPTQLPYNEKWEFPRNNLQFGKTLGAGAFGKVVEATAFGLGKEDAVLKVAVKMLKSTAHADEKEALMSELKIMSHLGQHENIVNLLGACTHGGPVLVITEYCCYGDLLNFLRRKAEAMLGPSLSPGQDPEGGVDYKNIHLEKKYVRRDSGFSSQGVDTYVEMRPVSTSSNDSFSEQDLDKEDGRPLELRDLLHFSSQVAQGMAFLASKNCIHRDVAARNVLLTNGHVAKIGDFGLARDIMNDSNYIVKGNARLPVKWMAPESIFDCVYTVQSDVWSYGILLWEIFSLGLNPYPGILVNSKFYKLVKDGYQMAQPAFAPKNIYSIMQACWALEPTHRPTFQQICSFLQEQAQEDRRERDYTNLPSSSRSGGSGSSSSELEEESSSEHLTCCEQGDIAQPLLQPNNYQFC", "chain of UniProt Q9UBE8 (whole entry, looked up)": "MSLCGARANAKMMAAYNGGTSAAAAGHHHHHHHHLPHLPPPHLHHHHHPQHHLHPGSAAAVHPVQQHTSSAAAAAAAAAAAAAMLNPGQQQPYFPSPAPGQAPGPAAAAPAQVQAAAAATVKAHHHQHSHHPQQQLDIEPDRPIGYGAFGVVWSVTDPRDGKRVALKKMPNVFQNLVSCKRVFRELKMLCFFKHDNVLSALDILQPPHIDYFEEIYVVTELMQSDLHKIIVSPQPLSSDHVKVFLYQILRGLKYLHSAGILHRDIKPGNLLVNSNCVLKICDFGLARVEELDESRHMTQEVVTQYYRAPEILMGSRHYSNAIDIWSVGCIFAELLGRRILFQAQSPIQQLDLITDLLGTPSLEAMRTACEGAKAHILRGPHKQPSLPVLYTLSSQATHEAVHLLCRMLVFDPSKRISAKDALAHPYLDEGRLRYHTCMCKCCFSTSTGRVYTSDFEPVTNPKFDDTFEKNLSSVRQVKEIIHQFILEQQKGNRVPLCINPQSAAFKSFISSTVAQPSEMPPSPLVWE", "chain of UniProt Q15375 (whole entry, looked up)": "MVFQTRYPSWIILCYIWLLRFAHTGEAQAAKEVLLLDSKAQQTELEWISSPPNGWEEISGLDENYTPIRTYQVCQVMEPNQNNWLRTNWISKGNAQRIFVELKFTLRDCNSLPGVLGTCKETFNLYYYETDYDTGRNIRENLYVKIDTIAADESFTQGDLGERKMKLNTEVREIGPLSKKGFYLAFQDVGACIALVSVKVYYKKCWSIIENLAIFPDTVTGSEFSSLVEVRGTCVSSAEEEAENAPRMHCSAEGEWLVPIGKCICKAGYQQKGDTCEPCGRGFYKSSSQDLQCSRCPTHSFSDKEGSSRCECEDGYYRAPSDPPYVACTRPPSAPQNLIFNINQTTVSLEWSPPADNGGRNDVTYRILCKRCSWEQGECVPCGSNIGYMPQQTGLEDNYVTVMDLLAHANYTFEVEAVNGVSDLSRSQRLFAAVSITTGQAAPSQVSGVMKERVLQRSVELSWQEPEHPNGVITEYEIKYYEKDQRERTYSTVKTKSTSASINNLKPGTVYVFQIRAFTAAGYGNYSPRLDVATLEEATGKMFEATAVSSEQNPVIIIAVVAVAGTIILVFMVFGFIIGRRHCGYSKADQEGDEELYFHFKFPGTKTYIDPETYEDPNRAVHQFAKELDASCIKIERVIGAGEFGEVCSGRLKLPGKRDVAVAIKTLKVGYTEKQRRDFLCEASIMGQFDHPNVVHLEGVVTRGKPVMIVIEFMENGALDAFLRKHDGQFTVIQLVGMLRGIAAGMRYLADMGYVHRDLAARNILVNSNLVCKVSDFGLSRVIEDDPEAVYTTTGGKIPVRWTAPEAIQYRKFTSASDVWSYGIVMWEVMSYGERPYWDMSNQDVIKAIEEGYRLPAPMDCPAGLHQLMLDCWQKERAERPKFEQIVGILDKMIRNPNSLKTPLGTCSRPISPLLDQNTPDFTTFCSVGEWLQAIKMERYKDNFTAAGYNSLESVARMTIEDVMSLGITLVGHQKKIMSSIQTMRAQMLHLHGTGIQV"}
{"data": "Sample 1", "SMILES": "COc1ccc(Cl)cc1NC(=O)Nc1cc(C)nc2ccccc12", "read-out": "enzyme activity", "mode": "inhibitor", "concentration": "0.5 µM", "reference": "control"}
{"target": "BMX (Homo sapiens, UniProt P51813)", "remaining activity [%]": 101}
{"target": "CSF1R (Homo sapiens, UniProt P07333)", "remaining activity [%]": 94.8}
{"target": "PIM2 (Homo sapiens, UniProt Q9P1W9)", "remaining activity [%]": 99.8}
{"target": "MYLK (Homo sapiens, UniProt Q15746)", "remaining activity [%]": 95.7}
{"target": "GRK6 (Homo sapiens, UniProt P43250)", "remaining activity [%]": 105}
{"target": "GRK2 (Homo sapiens, UniProt P25098)", "remaining activity [%]": 100}
{"target": "PAK2 (Homo sapiens, UniProt Q13177)", "remaining activity [%]": 97.2}
{"target": "EPHB2 (Homo sapiens, UniProt P29323)", "remaining activity [%]": 93.2}
{"target": "Aurora kinase C (AURKC, Homo sapiens, UniProt Q9UQB9)", "remaining activity [%]": 99.9}
{"target": "PRKCG (Homo sapiens, UniProt P05129)", "remaining activity [%]": 107}
{"target": "PRKCE (Homo sapiens, UniProt Q02156)", "remaining activity [%]": 99.7}
{"target": "SGK1 (Homo sapiens, UniProt O00141)", "remaining activity [%]": 94.7}
{"target": "CSK (Homo sapiens, UniProt P41240)", "remaining activity [%]": 99.9}
{"target": "SRPK3 (Homo sapiens, UniProt Q9UPE1)", "remaining activity [%]": 104}
{"target": "FGFR4 (Homo sapiens, UniProt P22455)", "remaining activity [%]": 102}
{"target": "EPHA7 (Homo sapiens, UniProt Q15375)", "remaining activity [%]": 99.7}
{"target": "RPS6KA1 (Homo sapiens, UniProt Q15418)", "remaining activity [%]": 77.8}
{"target": "RPS6KB1 (Homo sapiens, UniProt P23443)", "remaining activity [%]": 96}
{"target": "GSK3A (Homo sapiens, UniProt P49840)", "remaining activity [%]": 124}
{"target": "FLT3 (Homo sapiens, UniProt P36888)", "remaining activity [%]": 94.4}
{"data": "Sample 2", "SMILES": "COc1cc(C(=O)N2CCC(N3CCN(C)CC3)CC2)ccc1Nc1ncc2c(n1)N(C)c1ccccc1C(=O)N2C", "method": "KINOMEscan", "concentration": "10 µM", "reference": "DMSO control", "direction": "lower = stronger binding"}
{"target": "GAK", "binding [%]": 16}
{"target": "MAP4K2", "binding [%]": 100}
{"target": "TESK1", "binding [%]": 82}
{"target": "ROS1", "binding [%]": 12}
{"target": "CAMK4", "binding [%]": 79}
{"data": "Sample 3", "Structure (SMILES)": "C[C@@]1(Cc2ccc(C#N)cc2)C(=O)N(c2cc(Cl)cc(Cl)c2)c2ncc(C(=O)NC3(c4nc(C5CCC5)no4)CC3)n21", "read-out": "cell-free assay", "method": "competition with immobilised ligand", "concentration": "1 µM"}
{"target": "SRPK2 (Homo sapiens, UniProt P78362)", "remaining binding [%]": 100}
{"target": "AKT1 (Homo sapiens, UniProt P31749)", "remaining binding [%]": 100}
{"target": "KIT (Homo sapiens, UniProt P10721, T670I/V559D)", "remaining binding [%]": 100}
{"target": "CLK1 (Homo sapiens, UniProt P49759)", "remaining binding [%]": 100}
{"target": "TNIK (Homo sapiens, UniProt Q9UKE5)", "remaining binding [%]": 100}
{"target": "PIK3CA (Homo sapiens, UniProt P42336, H1047Y)", "remaining binding [%]": 100}
{"target": "TNK2 (Homo sapiens, UniProt Q07912)", "remaining binding [%]": 86}
{"target": "ERBB3 (Homo sapiens, UniProt P21860)", "remaining binding [%]": 96}
{"target": "STK3 (Homo sapiens, UniProt Q13188)", "remaining binding [%]": 100}
{"target": "SNRK (Homo sapiens, UniProt Q9NRH2)", "remaining binding [%]": 100}
{"target": "PIKFYVE (Homo sapiens, UniProt Q9Y2I7)", "remaining binding [%]": 100}
{"target": "NEK11 (Homo sapiens, UniProt Q8NG66)", "remaining binding [%]": 100}
{"target": "PLK2 (Homo sapiens, UniProt Q9NYY3)", "remaining binding [%]": 98}
{"target": "NLK (Homo sapiens, UniProt Q9UBE8)", "remaining binding [%]": 100}
{"target": "TNK1 (Homo sapiens, UniProt Q13470)", "remaining binding [%]": 93}
{"target": "RIPK1 (Homo sapiens, UniProt Q13546)", "remaining binding [%]": 100}
{"data": "Further values, each from its own experiment"}
{"SMILES": "COc1ccc(-c2c(Nc3ccccn3)[nH]c3c(C4=CCCCC4)c(-c4ccccc4)nn3c2=O)cc1", "test system": "human, plasma", "setting": "oral, 50 mg once daily", "measurement": "Vz/F", "result": "94400 mL"}
{"note": "For quick reference, copied from above (sample 3):"}
{"target": "PIK3CA (Homo sapiens, UniProt P42336, H1047Y)", "remaining binding [%]": 100}
{"target": "TNK2 (Homo sapiens, UniProt Q07912)", "remaining binding [%]": 86}
{"target": "ERBB3 (Homo sapiens, UniProt P21860)", "remaining binding [%]": 96}
{"target": "STK3 (Homo sapiens, UniProt Q13188)", "remaining binding [%]": 100}
{"target": "SNRK (Homo sapiens, UniProt Q9NRH2)", "remaining binding [%]": 100}
